Results from different studies.
Several values in a cell are separate wells, animals, samples, runs or records. ± marks the error that the study gave.
TDP1: Tyrosyl-DNA phosphodiesterase 1 (TDP1, Homo sapiens, UniProt Q9NUW8)
Sequence of UniProt Q9NUW8 (whole entry, looked up): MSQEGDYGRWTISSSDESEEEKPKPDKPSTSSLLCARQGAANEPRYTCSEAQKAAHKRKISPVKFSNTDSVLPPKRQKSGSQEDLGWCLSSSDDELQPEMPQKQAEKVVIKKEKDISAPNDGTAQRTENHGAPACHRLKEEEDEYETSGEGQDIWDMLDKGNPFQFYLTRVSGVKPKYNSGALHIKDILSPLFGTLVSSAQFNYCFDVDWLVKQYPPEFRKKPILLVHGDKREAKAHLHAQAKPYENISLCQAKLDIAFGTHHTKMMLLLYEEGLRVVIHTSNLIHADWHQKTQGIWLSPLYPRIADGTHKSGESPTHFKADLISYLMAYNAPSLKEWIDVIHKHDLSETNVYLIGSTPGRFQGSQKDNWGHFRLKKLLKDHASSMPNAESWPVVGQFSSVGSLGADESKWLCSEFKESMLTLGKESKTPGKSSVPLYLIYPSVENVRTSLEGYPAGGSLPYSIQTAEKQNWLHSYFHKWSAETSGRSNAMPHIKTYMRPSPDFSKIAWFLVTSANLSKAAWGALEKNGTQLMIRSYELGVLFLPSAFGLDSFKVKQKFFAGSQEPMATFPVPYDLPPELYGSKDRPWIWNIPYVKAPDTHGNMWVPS
B1: PTPN2 (Homo sapiens, UniProt P17706); chain MPTTIEREFEELDTQRRWQPLYLEIRNESHDYPHRVAKFPENRNRNRYRDVSPYDHSRVKLQNAENDYINASLVDIEEAQRSYILTQGPLPNTCCHFWLMVWQQKTKAVVMLNRIVEKESVKCAQYWPTDDQEMLFKETGFSVKLLSEDVKSYYTVHLLQLENINSGETRTISHFHYTTWPDFGVPESPASFLNFLFKVRESGSLNPDHGPAVIHCSAGIGRSGTFSLVDTCLVLMEKGDDINIKQVLLNMRKYRMGLIQTPDQLRFSYMAIIEGAKCIKGDSSIQKRWKELSKEDLSPAFDHSPNKIMTEKYNGNRIGLEEEKLTGDRCTGLSSKMQDTMEENSESALRKRIREDRKATTAQKVQQMKQRLNENERKRKRWLYWQPILTKMGFMSVILVGAFVGWTLFFQQNAL
Sequence of UniProt Q92887 (whole entry, looked up): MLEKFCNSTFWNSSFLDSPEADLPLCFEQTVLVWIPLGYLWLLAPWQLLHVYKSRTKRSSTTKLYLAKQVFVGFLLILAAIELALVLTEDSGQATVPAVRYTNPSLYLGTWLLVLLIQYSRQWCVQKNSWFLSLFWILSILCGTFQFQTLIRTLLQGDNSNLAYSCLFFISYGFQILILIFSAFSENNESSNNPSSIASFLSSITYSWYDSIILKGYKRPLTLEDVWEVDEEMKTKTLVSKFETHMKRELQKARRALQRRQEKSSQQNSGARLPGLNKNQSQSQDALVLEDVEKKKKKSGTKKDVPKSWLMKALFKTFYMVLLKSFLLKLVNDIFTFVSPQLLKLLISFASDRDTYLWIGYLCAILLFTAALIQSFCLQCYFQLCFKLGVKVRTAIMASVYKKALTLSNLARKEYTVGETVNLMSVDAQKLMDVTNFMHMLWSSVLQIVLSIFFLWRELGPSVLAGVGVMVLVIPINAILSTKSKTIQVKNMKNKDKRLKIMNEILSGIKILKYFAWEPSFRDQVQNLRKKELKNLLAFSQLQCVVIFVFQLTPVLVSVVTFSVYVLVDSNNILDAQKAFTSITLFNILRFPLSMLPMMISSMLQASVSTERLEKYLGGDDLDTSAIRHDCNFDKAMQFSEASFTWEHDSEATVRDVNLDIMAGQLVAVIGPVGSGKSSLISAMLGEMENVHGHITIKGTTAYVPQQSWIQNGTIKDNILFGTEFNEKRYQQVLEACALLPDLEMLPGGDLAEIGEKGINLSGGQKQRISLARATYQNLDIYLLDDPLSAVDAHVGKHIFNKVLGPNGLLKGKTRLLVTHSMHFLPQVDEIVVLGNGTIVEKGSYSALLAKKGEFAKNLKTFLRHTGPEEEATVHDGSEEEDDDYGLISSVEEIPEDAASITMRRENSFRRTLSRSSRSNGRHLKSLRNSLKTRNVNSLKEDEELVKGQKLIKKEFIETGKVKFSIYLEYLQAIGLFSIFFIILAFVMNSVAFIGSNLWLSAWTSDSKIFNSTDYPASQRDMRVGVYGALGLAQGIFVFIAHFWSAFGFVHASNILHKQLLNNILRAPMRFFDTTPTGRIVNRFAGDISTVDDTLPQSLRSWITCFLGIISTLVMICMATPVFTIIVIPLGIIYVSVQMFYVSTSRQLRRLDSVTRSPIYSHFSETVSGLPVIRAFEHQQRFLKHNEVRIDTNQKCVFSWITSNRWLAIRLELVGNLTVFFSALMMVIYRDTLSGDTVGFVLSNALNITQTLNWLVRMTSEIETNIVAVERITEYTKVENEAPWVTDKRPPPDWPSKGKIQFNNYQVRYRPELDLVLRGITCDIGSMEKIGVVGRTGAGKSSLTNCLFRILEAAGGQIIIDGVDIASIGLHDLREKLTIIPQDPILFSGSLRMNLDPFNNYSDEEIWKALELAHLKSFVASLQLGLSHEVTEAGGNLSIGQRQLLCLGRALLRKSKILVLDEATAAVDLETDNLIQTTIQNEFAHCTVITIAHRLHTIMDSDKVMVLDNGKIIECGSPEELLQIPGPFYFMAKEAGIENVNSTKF

Substance = CC(C)C[C@H](NC(=O)[C@@H](CCCCNC(=O)[C@@H](Cc1ccccc1)NC(=O)CCCCCNC(=O)CN1CCN(CC(=O)O)CCN(CC(=O)O)CCN(CC(=O)O)CC1)NC(=O)[C@H](Cc1ccc(O)cc1)NC(=O)[C@H](CO)NC(=O)[C@H](Cc1c[nH]c2ccccc12)NC(=O)[C@H](Cc1c[nH]cn1)NC(=O)[C@@H]1CCC(=O)N1)C(=O)N[C@@H](CCCNC(=N)N)C(=O)N1CCC[C@H]1C(=O)NCC(N)=O [indium-111 labelled]; system = female athymic nude mice, tumor; setting = intravenous, 0.037 MBq, 1 h; measurement = tissue uptake; result = 0.38 ± 0.07 %ID/g
Substance = CC(C)C[C@@H](NC(=O)[C@@H](CC(C)C)NC(=O)[C@@H](CC(=O)O)NC(=O)[C@@H](CC(C)C)NC(=O)[C@@H](CC(C)C)NC(=O)[C@@H](CC(C)C)NC(=O)[C@H](NC(=O)[C@@H](CC(=O)O)NC(=O)[C@H](NC(=O)[C@H]1CCCN1C(=O)[C@@H](Cc1ccccc1)NC(=O)[C@@H](CC(C)C)NC(=O)[C@@H](CC(C)C)NC(=O)[C@@H](CC(=O)O)NC(=O)[C@@H](CC(C)C)NC(=O)[C@@H](Cc1ccc(O)cc1)NC(=O)[C@@H](C)NC(=O)[C@@H](CCCNC(=N)N)NC(=O)[C@@H](Cc1c[nH]c2ccccc12)NC(=O)[C@H]1CCCN1C(=O)[C@@H](CC(N)=O)NC(=O)[C@@H](CCC(N)=O)NC(=O)[C@@H](CC(=O)O)NC(=O)[C@@H](CC(=O)O)NC(=O)[C@@H](CSC1CC(=O)N(CCNC(=O)CN2CCN(CC(=O)O)CCN(CC(=O)O)CC2)C1=O)NC(=O)[C@@H](C)N)[C@H](C)O)[C@H](C)O)C(=O)N[C@H](Cc1c[nH]c2ccccc12)C(=O)O (some centres unmarked) [copper-64 labelled]; system = C57BL/6 mice, female, B16-F10 melanoma, blood; setting = intravenous, 4 h; measurement = tissue uptake; result = 19.5 %ID/g
Substance = C=C1CC[C@H](OCCCNC(=O)CCOCCOCCOCCOCCOCCOCCOCCOCCOCCOCCOCCOCCOCCOCCOCCOCCOCCOCCOCCOCCOCCOCCOCCOCCOCCOCCOCCOCCOCCOCCOCCOCCOCCOCCOCCOCCNC(=O)CCN2C(=O)CC(SC[C@H](NC(=O)[C@H](Cc3ccccc3)NC(=O)[C@H](CC(N)=O)NC(=O)[C@H](Cc3c[nH]cn3)NC(=O)[C@@H](NC(=O)[C@H](CC(=O)O)NC(=O)[C@H](CCC(N)=O)NC(=O)[C@H](CC(C)C)NC(=O)[C@H](CCCCN)NC(=O)[C@H](CCCCN)NC(=O)[C@H](CCCNC(=N)N)NC(=O)[C@H](CC(C)C)NC(=O)[C@H](Cc3c[nH]c4ccccc34)NC(=O)[C@H](CCC(=O)O)NC(=O)[C@@H](NC(=O)[C@H](CCCNC(=N)N)NC(=O)[C@H](CCC(=O)O)NC(=O)[C@H](CCSC)NC(=O)[C@H](CO)NC(=O)[C@H](CC(N)=O)NC(=O)[C@H](CC(C)C)NC(=O)[C@H](Cc3c[nH]cn3)NC(=O)[C@H](CCCCN)NC(=O)CNC(=O)[C@H](CC(C)C)NC(=O)[C@H](CC(N)=O)NC(=O)[C@H](Cc3c[nH]cn3)NC(=O)[C@H](CCSC)NC(=O)[C@H](CC(C)C)NC(=O)[C@H](CCC(N)=O)NC(=O)[C@@H](NC(=O)[C@H](CCC(=O)O)NC(=O)[C@H](CO)NC(=O)[C@@H](NC(=O)[C@@H](N)CO)C(C)C)[C@@H](C)CC)C(C)C)C(C)C)C(=O)O)C2=O)C/C1=C/C=C1\CCC[C@]2(C)[C@@H]([C@H](C)CCCC(C)(C)O)CC[C@@H]12 (some centres unmarked); system = male Sprague-Dawley rat, plasma; setting = subcutaneous, 100 µg/kg, single dose; measurement = clearance; result = 0.432 mL/min/kg
Substance = O=C(O)c1ccc(Nc2c(-c3ccccc3)nc3ccc(CON=CC4(c5ccccc5Cl)CCOCC4)cn23)cc1; target or system = TDP1; test = enzyme activity, inhibitor; setting = 100 µM, unpurified compound; measurement = inhibition; result = 14%
Substance = CCCC[C@H](NC(=O)COCCOCCNC(=O)CN1CCN(CC(=O)O)CCN(CC(=O)O)CC1)C(=O)N[C@H]1CC(=O)NCCCC[C@@H](C(N)=O)NC(=O)[C@H](Cc2c[nH]c3ccccc23)NC(=O)[C@H](CCCNC(=N)N)NC(=O)[C@@H](Cc2ccccc2)NC(=O)[C@H](Cc2c[nH]cn2)NC1=O [technetium-99m labelled]; system = C57 mouse, liver; setting = intravenous, 0.037 MBq, 24 h; measurement = tissue uptake; result = 0.02 ± 0.02 %ID/g
Substance = C[C@@H](O)[C@@H]1NC(=O)[C@H](CCCCN)NC(=O)[C@@H](Cc2c[nH]c3ccccc23)NC(=O)[C@H](Cc2ccc(O)cc2)NC(=O)[C@@H](NC(=O)[C@@H](Cc2ccccc2)NC(=O)CN2CCN(CC(=O)O)CCN(CC(=O)O)CCN(CC(=O)O)CC2)CSSC[C@@H](C(=O)N[C@H](CO)[C@@H](C)O)NC1=O [gallium-67 labelled]; test = gamma counting; system = ICR mice, male, bone; setting = iv, 11 kBq/mouse, 3 h; measurement = tissue uptake; result = 1.62 ± 0.91 %ID/g
Substance = B1 (PTPN2); target or system = CC(C)[C@H](NC(=O)[C@H](CCC(=O)O)NC(=O)[C@H](CCC(=O)O)NC(=O)[C@H](Cc1ccc(O)cc1)NC(=O)[C@H](CCC(=O)O)NC(=O)[C@H](CC(=O)O)NC(=O)[C@H](CC(=O)O)NC(=O)[C@H](CCC(=O)O)NC(=O)c1ccc2c(c1)C1(OC2=O)c2ccc(O)cc2Oc2cc(O)ccc21)C(N)=O; test = steady-state kinetics; setting = pH 9.5; measurement = Km; result = 2.8 µM
Substance = CC(C)C[C@H](NC(=O)[C@H](Cc1ccc(O)cc1)NC(=O)[C@@H](CCCNC(=N)N)NC(=O)[C@@H](CO)NC(=O)[C@H](Cc1ccccc1)NC(=O)[C@H](CC1CCCCC1)NC(=O)[C@H](CC(=O)O)NC(=O)CN1CCN(CC(=O)O)CCN(CC(=O)O)CCN(CC(=O)O)CC1)C(=O)N[C@@H](Cc1c[nH]c2ccccc12)C(=O)N[C@@H](CO)C(=O)O [copper-64 labelled]; system = human, lung; setting = concentration not given, 3 h; measurement = activity concentration; result = 977 Bq/mL and 508 Bq/mL and 589 Bq/mL and 560 Bq/mL and 274 Bq/mL and 450 Bq/mL
Substance = ABCC2 (Homo sapiens, UniProt Q92887); target or system = O=C(c1ccc(OCCN2CCCCC2)cc1)c1c(-c2ccc(O[C@@H]3O[C@H](C(=O)O)[C@@H](O)[C@H](O)[C@H]3O)cc2)sc2cc(O[C@@H]3O[C@H](C(=O)O)[C@@H](O)[C@H](O)[C@H]3O)ccc12; test = steady-state kinetics; system = Sf9 vesicles; setting = pH 7, 37 °C, not purified, added: ATP; measurement = Km; result = 36.6 µM
Substance = O=C(O)c1ccc(Nc2c(-c3ccc(CON=Cc4ccc(-c5ccccc5)cc4)cc3)nc3cc(-c4ccccc4)ccn23)cc1; target or system = TDP1; test = enzyme activity, inhibitor; setting = 100 µM; measurement = inhibition; result = 36.2%
Substance = CCCC[C@H](NC(=O)CCCCCCCNC(=O)CN1CCN(CC(=O)O)CCN(CC(=O)O)CC1)C(=O)N[C@H]1CC(=O)NCCCC[C@@H](C(N)=O)NC(=O)[C@H](Cc2c[nH]c3ccccc23)NC(=O)[C@H](CCCNC(=N)N)NC(=O)[C@@H](Cc2ccccc2)NC(=O)[C@H](Cc2c[nH]cn2)NC1=O [technetium-99m labelled]; system = C57 mouse, muscle; setting = intravenous, 0.037 MBq, 24 h; measurement = tissue uptake; result = 0.06 ± 0.02 %ID/g

Excerpt of the above:
Substance = C=C1CC[C@H](OCCCNC(=O)CCOCCOCCOCCOCCOCCOCCOCCOCCOCCOCCOCCOCCOCCOCCOCCOCCOCCOCCOCCOCCOCCOCCOCCOCCOCCOCCOCCOCCOCCOCCOCCOCCOCCOCCOCCOCCNC(=O)CCN2C(=O)CC(SC[C@H](NC(=O)[C@H](Cc3ccccc3)NC(=O)[C@H](CC(N)=O)NC(=O)[C@H](Cc3c[nH]cn3)NC(=O)[C@@H](NC(=O)[C@H](CC(=O)O)NC(=O)[C@H](CCC(N)=O)NC(=O)[C@H](CC(C)C)NC(=O)[C@H](CCCCN)NC(=O)[C@H](CCCCN)NC(=O)[C@H](CCCNC(=N)N)NC(=O)[C@H](CC(C)C)NC(=O)[C@H](Cc3c[nH]c4ccccc34)NC(=O)[C@H](CCC(=O)O)NC(=O)[C@@H](NC(=O)[C@H](CCCNC(=N)N)NC(=O)[C@H](CCC(=O)O)NC(=O)[C@H](CCSC)NC(=O)[C@H](CO)NC(=O)[C@H](CC(N)=O)NC(=O)[C@H](CC(C)C)NC(=O)[C@H](Cc3c[nH]cn3)NC(=O)[C@H](CCCCN)NC(=O)CNC(=O)[C@H](CC(C)C)NC(=O)[C@H](CC(N)=O)NC(=O)[C@H](Cc3c[nH]cn3)NC(=O)[C@H](CCSC)NC(=O)[C@H](CC(C)C)NC(=O)[C@H](CCC(N)=O)NC(=O)[C@@H](NC(=O)[C@H](CCC(=O)O)NC(=O)[C@H](CO)NC(=O)[C@@H](NC(=O)[C@@H](N)CO)C(C)C)[C@@H](C)CC)C(C)C)C(C)C)C(=O)O)C2=O)C/C1=C/C=C1\CCC[C@]2(C)[C@@H]([C@H](C)CCCC(C)(C)O)CC[C@@H]12 (some centres unmarked); system = male Sprague-Dawley rat, plasma; setting = subcutaneous, 100 µg/kg, single dose; measurement = clearance; result = 0.432 mL/min/kg
